Assay results collected from several papers.
A part holds a random share of what one study measured. Positions count from the first letter of the parent shown.

Series 1
Target: CCND1, cyclin fold, Cln2 fusion (human)
Method: yeast growth competition, sequencing
Matrix: yeast
Notes: strong parent motif
Baseline: not given
Reading: higher = stronger binding
Quantity: normalised enrichment score
Parent: PKN2 docking peptide (human); VSAVQKLDFSDTM; partner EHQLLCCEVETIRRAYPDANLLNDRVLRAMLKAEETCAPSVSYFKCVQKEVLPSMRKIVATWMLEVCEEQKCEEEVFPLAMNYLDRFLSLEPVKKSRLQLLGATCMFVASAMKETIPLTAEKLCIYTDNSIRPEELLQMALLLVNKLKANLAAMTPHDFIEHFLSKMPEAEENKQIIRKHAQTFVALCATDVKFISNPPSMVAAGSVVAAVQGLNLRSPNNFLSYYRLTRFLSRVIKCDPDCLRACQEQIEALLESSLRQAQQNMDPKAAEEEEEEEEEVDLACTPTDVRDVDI
VSAWQKLDFSDTM [V4W]: 0.507
LSAVQKLDFSDTM [V1L]: 0.849
VSAVQKLDSSDTM [F9S]: 0.426
VSAPQKLDFSDTM [V4P]: 0.785
VSAVQKLIFSDTM [D8I]: 1.13
VSLVQKLDFSDTM [A3L]: 1.32
VSAVQNLDFSDTM [K6N]: 1.19
VSAVQKLDFSDWM [T12W]: 3.59
VSAVQRLDFSDTM [K6R]: 2.19
VSAYQKLDFSDTM [V4Y]: 1.52
VSAVQKLDFSKTM [D11K]: 0.999
RSAVQKLDFSDTM [V1R]: 2.67
VSAVQKLDFSDTT [M13T]: 2.52
VSAVQKLDHSDTM [F9H]: -0.0429
VSAVQKLDFRDTM [S10R]: 1.43
VSATQKLDFSDTM [V4T]: 0.641
VSAVQKLDFADTM [S10A]: 1.7
VSAVQQLDFSDTM [K6Q]: 1.32
PSAVQKLDFSDTM [V1P]: 2.5
VSAVQKLDFCDTM [S10C]: 1.76
VSAVQKLVFSDTM [D8V]: 1.41
VSAVQKLDESDTM [F9E]: 0.345
VSGVQKLDFSDTM [A3G]: 0.315
VSTVQKLDFSDTM [A3T]: 0.617
VWAVQKLDFSDTM [S2W]: 1.31

Series 2
Target: Interferon regulatory factor 5, full length, phosphomimetic (IRF5, Homo sapiens, UniProt Q13568-2, residues 1-514, S451D/S453D/S456D/S462D)
Method: protein-binding microarray
Molecule type: double-stranded DNA, one strand shown
Matrix: in vitro
Concentration: 940 nM top
Notes: 60-bp whole probe
Together with: salmon DNA 0.4 mg/ml
Baseline: random background probes
Reading: higher = stronger binding
Quantity: fitted relative affinity
Constant ends, left off below: GCCTAGCAC … GTCTTGATTCGCTTGACGCTGCTG
TGTCTTCCCCATCTTGTTCCGTGCTAG: 1.39 z-score
TCAACTCTCAGAATCTCACTGTGCTAG: 1.2 z-score
TTAGGTATCCTATTGCTTTAGTGCTAG: 0.101 z-score
TACGATATCAGTATCGAGACGTGCTAG: 1.68 z-score
TTAGGACTGCGTTTCCTTTAGTGCTAG: -0.282 z-score
TTGGGACTGGGTCTCGGTTAGTGCTAG: 1.18 z-score
GACGGTATCGCGACTGGGGACGTGCTA: 0.565 z-score
TCATGCCTCATCTTGCAGACTGTGCTA: 0.245 z-score
TTAGGACTGGGTCTCAGTTAGTGCTAG: -0.127 z-score
CATTGCCTATTTTTCACCTGGTGCTAG: 1.05 z-score
TCATATATGCATGTAAAACTGTGCTAG: -0.0971 z-score
GACGGACTGGGTATCGGAACGTGCTAG: 1.14 z-score
TTAGGTTTCGACTATCGGCTAGTGCTA: 9.24 z-score
TTAGATATCATTATCGATTAGTGCTAG: 0.754 z-score
GACGAACTGGGGACTGGAGAAGTGCTA: 0.443 z-score
TCATTTACCCATCTCCAACTGTGCTAG: 1.12 z-score
TCACACATATAATTTTGTACTGTGCTA: 0.291 z-score
TTACGACTGGGGTATCGGTTAGTGCTA: 3.46 z-score
GACGGACTGGGTACCGGGACGTGCTAG: -0.548 z-score
GGTCCTCTGGGCTGTTTGGCCGTGCTA: -0.515 z-score
TCATATTTAAGACCTATGACTGTGCTA: 0.315 z-score
GACGATTTAGGGACTGGAGACGTGCTA: -0.553 z-score
TTAGGAATCGACTTTCGGTTAGTGCTA: 3.19 z-score
TTAGAGTTCGGGACTGGATTAGTGCTA: -0.6 z-score

Series 3
Target: RING finger protein unkempt homolog, zinc fingers 1-6, GST-SBP tag (UNK, Homo sapiens, UniProt Q9C0B0, residues 30-357)
Chain of UniProt Q9C0B0 (30-357, looked up): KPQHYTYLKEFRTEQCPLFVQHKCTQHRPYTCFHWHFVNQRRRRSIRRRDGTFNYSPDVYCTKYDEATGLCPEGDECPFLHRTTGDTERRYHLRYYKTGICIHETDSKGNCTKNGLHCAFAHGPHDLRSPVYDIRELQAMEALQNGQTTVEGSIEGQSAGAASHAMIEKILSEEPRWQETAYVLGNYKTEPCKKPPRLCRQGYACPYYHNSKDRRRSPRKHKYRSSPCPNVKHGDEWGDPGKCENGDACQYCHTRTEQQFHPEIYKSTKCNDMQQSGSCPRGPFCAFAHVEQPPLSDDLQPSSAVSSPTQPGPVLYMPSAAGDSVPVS
Method: RNA Bind-n-Seq
Molecule type: RNA
Matrix: in vitro
Concentration: not given
Notes: RNA with constant flanks, human-mouse chimeric sites, ends assumed
Baseline: input RNA pool
Reading: higher = stronger binding
Quantity: bound/input enrichment
Constant ends, left off below: GGGAGUUCUACAGUCCGACGAUC … CAACAGAGGAUUGAGCAUCA
CUCAGAGAUGUGGCAUAUCAGUAUGUGAAAAAGGGGGCUCGUAUAUUUGUGGAAGGGAAAGUGGACUAUGGCGAGUACAUGGAUAAAAAUAAUGUGAGGCGACAAGCAACAACAAUCAUA: 0.495 ratio
UGGCGCCUGCGCUCCCCACUCGUGUUUUUAAGUGUAUUUUUAUAAGACAUGUGUAUUUACAAUUGAGUUUUUGAUUAAUAAUGCUGAAAUGCUACUGGAGAUUAUGAAAAAUGUUUCAAU: 0.273 ratio
UACUCAACUUUCUUGCCACAUUUUGAAUUCCAAGACAUUAUUCCUCCAGAUGACUUCCUAACUAGUGAUGAAGAGCAAGAUUUGGUUUUAUUUGGAACUAUGAGAGGUCAUGUGGUUGGA: 0.391 ratio
UCCCAAAUUAUAAGGCAAGAAGGAGCCUUGAGACAAACACUCCACACGCAGGGAGGGCGAUAACAUUGUACAUUGGUUUACAUUUUUUCCCCCUGUGGAUUUUUCUAGAGGUCAUAGUGC: 0.379 ratio
UUGCUACUGACUCCCUGGGUCAAGUUCCUGUGGGAGUCAUACAGGCAGUGUUUGGACCUUCUUCGAAACAAUUCUAGAGUAGAGCGCCUUUACCAUGAUAUUGCCCAACAAGCUUUCAAA: 0.108 ratio
CGCUGGCCCAAGCUGAUGGACUCUGAUGGCCUCCAUCUCUCAGGCACGUUUGCCUUCUCUUAGUUAUUGUUUUCGGGAUGUUAUGAAUCUCAGUACUGUGGUUUGAAAGCACCAGCUUUG: 7.06 ratio
CUUAUGGCUGCAGAAACAGGAAGUGGAAAAACUGGUGCAUUUAGUAUUCCAGUUAUCCAGAUAGUGUAUGAAACUCUGAAAGACCAACAGGAAGGAAAGAAAGGGAAAACAACUAUUAAA: 0.637 ratio
UACUACUAUGAUGGUGAUAUUGGCAAUUAUUAUUAUGGACAGGGUCAUCCCAUGAAGCCUCAUAGAAUCCGGAUGACUCAUAACUUGCUGCUAAAUUAUGGUUUAUACAGAAAAAUGGAA: 0.287 ratio
CUCAGAGAUGUGGCAUAUCAAUAUGUGAAAAAGGGGGCUCGAAUUUAUGUGGAAGGGAAAGUGGACUAUGGCGAGUACAUGGAUAAAAACAAUGUGAGGCGGCAAGCAACAACAAUCAUA: 0.414 ratio
AUGGUUGUGAAAGGUGUGAUCUAAAAACAAGAUGACUUUUCCUGGCACAUAUUCCAAAGCAAAGACUUUGUUGCCUGCUGCUUAUUGUCUAAUUUACAGGGAUAUUUAAUUUUGUCAGGU: 0.198 ratio
GUACUGCAGCAGCAGGGCAAGCUGCAGGAAGCUCUGAUGCAUUAUAAGGAGGCUAUUCGAAUCAGUCCUACCUUUGCUGAUGCCUACUCCAAUAUGGGAAACACUCUAAAGGAGAUGCAG: 0.201 ratio

Series 4
Target: Prothrombin, mature alpha-thrombin (F2, Homo sapiens, UniProt P00734)
Method: aptamer microarray, sandwich
Molecule type: DNA with 2'F-ANA
Matrix: in vitro
Concentration: 200 nM
Notes: whole 15-mer aptamer, many near background
Together with: Cy3 exosite-II aptamer, 400 nM
Reading: higher = stronger binding
Quantity: mean fluorescence intensity
Oligonucleotide: GGTTGGTGTGGTTGG
2'F-ANA at 1 2 3 4 6 7 9 11 12 13 14 15: 61.4 a.u.
2'F-ANA at 4 6 8 9 10 11 12 14: 63.6 a.u.
2'F-ANA at 1 2 4 5 9 15: 54 a.u.
2'F-ANA at 1 2 5 6 7 10 11 13 14: 54.8 a.u.
2'F-ANA at 2 3 4 5 9 11 15: 75.5 a.u.
2'F-ANA at 1 3 4 5 6 7 8 11 13 15: 50.6 a.u.
2'F-ANA at 1 2 3 6 7 8 9 10 11 13: 65.3 a.u.
2'F-ANA at 2 3 5 9 10: 184 a.u.
2'F-ANA at 3 6 7 9 10 11 13 14: 310 a.u.
2'F-ANA at 1 2 3 4 7 9 10 11 14: 53.9 a.u.
2'F-ANA at 4 5 9 13: 47.4 a.u.
2'F-ANA at 2 5 6 8 12 13 14 15: 47.2 a.u.
2'F-ANA at 2 3 5 9 12 13: 162 a.u.
2'F-ANA at 6 7 8 11 14: 204 a.u.
2'F-ANA at 2 6 7 10 12 13 14: 100 a.u.
2'F-ANA at 1 6 8 11: 177 a.u.
2'F-ANA at 9 10 11 13 15: 125 a.u.
2'F-ANA at 1 2 3 5 7 9 10 14 15: 64.3 a.u.
2'F-ANA at 2 4 5 6 7 8 9 13: 59.7 a.u.

Repeated from above (series 2):
TTAGGTATCCTATTGCTTTAGTGCTAG: 0.101 z-score
TACGATATCAGTATCGAGACGTGCTAG: 1.68 z-score
TTAGGACTGCGTTTCCTTTAGTGCTAG: -0.282 z-score
TTGGGACTGGGTCTCGGTTAGTGCTAG: 1.18 z-score
GACGGTATCGCGACTGGGGACGTGCTA: 0.565 z-score
TCATGCCTCATCTTGCAGACTGTGCTA: 0.245 z-score
TTAGGACTGGGTCTCAGTTAGTGCTAG: -0.127 z-score
CATTGCCTATTTTTCACCTGGTGCTAG: 1.05 z-score
TCATATATGCATGTAAAACTGTGCTAG: -0.0971 z-score
